Measurements from different studies.
Each numbered part is a random draw from the data of one study; scales do not carry over between parts.
UniProt P51956, sequence (whole entry, looked up): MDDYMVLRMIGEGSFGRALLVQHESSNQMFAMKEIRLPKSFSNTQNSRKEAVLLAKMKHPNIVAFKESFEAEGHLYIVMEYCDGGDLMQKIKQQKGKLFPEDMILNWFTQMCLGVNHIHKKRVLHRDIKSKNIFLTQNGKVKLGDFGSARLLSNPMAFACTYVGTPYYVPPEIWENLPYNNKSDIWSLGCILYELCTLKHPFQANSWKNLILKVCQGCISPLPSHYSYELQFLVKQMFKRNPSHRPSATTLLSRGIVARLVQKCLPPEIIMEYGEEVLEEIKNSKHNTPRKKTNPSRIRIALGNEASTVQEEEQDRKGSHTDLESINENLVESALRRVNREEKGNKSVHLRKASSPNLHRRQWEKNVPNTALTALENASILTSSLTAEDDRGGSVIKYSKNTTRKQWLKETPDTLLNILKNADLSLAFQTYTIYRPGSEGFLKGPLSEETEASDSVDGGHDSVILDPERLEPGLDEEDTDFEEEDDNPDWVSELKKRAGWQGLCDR
UniProt Q9NSY1, sequence (whole entry, looked up): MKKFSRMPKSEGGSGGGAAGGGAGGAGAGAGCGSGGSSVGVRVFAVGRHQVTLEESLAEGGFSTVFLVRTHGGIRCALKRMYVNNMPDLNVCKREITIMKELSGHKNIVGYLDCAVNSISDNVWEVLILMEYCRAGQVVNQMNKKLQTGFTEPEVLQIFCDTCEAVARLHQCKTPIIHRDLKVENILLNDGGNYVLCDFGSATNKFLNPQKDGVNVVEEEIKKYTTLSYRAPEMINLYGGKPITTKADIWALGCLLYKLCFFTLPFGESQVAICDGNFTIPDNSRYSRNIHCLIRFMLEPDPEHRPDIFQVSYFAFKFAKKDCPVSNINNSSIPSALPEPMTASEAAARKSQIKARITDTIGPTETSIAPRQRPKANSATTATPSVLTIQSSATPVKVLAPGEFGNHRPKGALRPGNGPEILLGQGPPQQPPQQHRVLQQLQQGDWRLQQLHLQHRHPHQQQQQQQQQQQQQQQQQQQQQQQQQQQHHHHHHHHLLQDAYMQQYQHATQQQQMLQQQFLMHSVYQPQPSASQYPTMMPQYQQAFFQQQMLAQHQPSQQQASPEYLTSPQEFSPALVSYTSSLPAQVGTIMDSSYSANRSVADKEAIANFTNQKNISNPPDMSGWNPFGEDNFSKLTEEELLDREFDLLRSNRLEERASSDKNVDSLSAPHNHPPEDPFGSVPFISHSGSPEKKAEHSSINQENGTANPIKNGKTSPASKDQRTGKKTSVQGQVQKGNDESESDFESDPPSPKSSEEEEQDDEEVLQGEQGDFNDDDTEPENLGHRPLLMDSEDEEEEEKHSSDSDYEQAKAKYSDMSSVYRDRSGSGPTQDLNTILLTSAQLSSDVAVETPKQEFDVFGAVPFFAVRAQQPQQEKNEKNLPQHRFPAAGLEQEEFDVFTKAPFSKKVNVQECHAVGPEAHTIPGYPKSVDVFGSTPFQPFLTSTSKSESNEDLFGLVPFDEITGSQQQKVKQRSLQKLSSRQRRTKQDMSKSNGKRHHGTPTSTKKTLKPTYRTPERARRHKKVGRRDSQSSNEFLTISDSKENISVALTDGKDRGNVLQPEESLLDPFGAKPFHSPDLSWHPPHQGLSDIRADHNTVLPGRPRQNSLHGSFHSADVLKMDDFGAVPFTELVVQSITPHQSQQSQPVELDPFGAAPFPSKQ
UniProt Q9NRP7, sequence (whole entry, looked up): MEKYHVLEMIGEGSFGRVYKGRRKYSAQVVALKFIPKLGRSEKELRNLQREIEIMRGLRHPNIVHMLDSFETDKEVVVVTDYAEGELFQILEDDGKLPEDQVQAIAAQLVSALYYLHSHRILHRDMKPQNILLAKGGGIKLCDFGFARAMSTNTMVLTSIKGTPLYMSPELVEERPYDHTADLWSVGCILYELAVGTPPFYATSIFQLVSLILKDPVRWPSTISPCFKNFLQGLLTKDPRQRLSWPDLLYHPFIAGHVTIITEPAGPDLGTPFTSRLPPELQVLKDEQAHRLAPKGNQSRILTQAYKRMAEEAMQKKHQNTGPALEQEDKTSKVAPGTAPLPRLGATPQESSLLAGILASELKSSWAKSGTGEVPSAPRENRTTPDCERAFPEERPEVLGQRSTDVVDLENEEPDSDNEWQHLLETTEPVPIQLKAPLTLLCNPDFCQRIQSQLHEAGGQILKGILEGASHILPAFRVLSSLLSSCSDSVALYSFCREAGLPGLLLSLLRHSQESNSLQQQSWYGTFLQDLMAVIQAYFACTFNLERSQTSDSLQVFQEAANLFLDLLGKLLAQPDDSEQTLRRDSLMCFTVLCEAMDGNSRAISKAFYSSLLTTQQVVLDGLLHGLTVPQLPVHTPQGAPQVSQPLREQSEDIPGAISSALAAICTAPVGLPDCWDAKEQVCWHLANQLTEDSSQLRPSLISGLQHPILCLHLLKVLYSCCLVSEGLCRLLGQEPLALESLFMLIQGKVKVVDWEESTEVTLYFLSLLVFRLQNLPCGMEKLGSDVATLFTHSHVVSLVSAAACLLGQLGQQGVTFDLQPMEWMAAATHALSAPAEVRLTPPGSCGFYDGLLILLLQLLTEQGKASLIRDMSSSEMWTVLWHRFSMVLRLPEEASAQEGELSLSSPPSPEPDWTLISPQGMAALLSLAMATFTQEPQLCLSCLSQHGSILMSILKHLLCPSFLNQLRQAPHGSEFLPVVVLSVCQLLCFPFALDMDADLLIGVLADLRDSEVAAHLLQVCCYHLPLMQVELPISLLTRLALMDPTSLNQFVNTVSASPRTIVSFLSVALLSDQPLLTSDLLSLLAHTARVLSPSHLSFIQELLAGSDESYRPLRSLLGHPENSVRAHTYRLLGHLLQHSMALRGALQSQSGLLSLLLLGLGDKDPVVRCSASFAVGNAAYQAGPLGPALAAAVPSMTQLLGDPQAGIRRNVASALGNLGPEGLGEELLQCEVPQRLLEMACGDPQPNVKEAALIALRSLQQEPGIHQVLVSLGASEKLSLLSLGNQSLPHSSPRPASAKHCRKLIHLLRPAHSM
UniProt Q16832, sequence (whole entry, looked up): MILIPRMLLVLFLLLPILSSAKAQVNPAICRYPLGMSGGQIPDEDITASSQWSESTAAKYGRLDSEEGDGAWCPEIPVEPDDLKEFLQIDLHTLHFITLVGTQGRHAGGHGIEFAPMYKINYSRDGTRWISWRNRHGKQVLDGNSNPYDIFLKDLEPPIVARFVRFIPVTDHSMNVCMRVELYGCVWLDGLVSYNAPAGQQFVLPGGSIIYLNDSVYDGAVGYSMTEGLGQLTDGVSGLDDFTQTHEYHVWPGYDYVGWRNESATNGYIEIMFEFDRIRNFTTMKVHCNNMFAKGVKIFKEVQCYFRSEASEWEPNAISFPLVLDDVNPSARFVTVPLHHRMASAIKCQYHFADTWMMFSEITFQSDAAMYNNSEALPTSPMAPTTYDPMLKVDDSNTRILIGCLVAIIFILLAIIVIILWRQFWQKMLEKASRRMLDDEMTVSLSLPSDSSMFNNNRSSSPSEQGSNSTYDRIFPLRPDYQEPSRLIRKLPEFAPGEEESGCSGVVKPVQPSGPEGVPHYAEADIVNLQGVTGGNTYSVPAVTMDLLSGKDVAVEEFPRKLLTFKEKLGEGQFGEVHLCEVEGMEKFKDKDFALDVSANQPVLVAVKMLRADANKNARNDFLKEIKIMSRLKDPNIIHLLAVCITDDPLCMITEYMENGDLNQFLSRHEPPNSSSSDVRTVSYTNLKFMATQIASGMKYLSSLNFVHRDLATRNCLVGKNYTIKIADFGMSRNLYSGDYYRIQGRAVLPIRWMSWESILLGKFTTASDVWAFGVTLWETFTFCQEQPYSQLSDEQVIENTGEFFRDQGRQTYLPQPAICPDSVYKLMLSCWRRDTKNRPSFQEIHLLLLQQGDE
UniProt Q99759, sequence (whole entry, looked up): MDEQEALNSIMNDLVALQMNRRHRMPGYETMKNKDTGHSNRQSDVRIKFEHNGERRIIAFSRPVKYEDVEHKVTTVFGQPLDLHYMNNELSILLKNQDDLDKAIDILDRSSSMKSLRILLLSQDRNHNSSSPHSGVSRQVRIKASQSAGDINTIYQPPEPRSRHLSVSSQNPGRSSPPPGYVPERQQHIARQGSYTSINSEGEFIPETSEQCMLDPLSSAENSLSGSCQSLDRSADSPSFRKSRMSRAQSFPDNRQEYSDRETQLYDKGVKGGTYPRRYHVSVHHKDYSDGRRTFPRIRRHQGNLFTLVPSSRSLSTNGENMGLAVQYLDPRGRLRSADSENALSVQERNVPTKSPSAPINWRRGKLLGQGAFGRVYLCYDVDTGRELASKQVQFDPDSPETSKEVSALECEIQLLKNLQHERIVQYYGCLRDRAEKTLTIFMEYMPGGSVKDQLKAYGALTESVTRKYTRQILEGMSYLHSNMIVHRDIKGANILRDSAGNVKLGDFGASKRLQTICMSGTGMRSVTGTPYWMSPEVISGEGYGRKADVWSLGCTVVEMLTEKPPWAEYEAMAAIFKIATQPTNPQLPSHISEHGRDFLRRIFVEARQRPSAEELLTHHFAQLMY

Sample 1
Compound: CCN1/C(=C/C(C)=O)Sc2ccc(OC)cc21
Observed: enzyme activity
Mode: inhibitor
Tested at: 0.5 µM
Reference: control
target	remaining activity
Cyclin-dependent kinase 1, with cyclin A (CDK1, Homo sapiens, UniProt P06493)	97.5%
MAPK14 (Homo sapiens, UniProt Q16539)	95.4%
MAP2K1 (Homo sapiens, UniProt Q02750)	98.7%
Cyclin-dependent kinase 9, with cyclin K (CDK9, Homo sapiens, UniProt P50750)	86.2%
PRKG2 (Homo sapiens, UniProt Q13237)	65.8%
DDR2 (Homo sapiens, UniProt Q16832)	96.6%
CDC42BPB (Homo sapiens, UniProt Q9Y5S2)	114%
ROCK1 (Homo sapiens, UniProt Q13464)	99.3%
DCLK2 (Homo sapiens, UniProt Q8N568)	97.9%
MAPK11 (Homo sapiens, UniProt Q15759)	84.5%
TXK (Homo sapiens, UniProt P42681)	100%
PNCK (Homo sapiens, UniProt Q6P2M8)	101%
MARK4 (Homo sapiens, UniProt Q96L34)	102%
KDR (Homo sapiens, UniProt P35968)	104%
MET (Homo sapiens, UniProt P08581)	103%
NEK3 (Homo sapiens, UniProt P51956)	82.5%
PLK3 (Homo sapiens, UniProt Q9H4B4)	99.4%
CAMK4 (Homo sapiens, UniProt Q16566)	99.9%
RPS6KA4 (Homo sapiens, UniProt O75676)	91.8%
AKT2 (Homo sapiens, UniProt P31751)	95.2%
MAPK1 (Homo sapiens, UniProt P28482)	97.1%
GRK4 (Homo sapiens, UniProt P32298)	96.2%
MARK2 (Homo sapiens, UniProt Q7KZI7)	89.5%
PAK3 (Homo sapiens, UniProt O75914)	96.3%

Sample 2
Structure (SMILES): O=C1CCc2cc(Nc3cc(OC4CCOCC4)c([N+](=O)[O-])cc3Cl)ccc2N1
Observed: cell-free assay
Technique: competition with immobilised ligand
Tested at: 1 µM
target	remaining binding [%]
MAP3K3 (Homo sapiens, UniProt Q99759)	95
BMP2K (Homo sapiens, UniProt Q9NSY1)	100
Receptor-type tyrosine-protein kinase FLT3, autoinhibited (FLT3, Homo sapiens, UniProt P36888)	99
MELK (Homo sapiens, UniProt Q14680)	77
MAP3K1 (Homo sapiens, UniProt Q13233)	65
STK36 (Homo sapiens, UniProt Q9NRP7)	96
NEK3 (Homo sapiens, UniProt P51956)	100
PRKD3 (Homo sapiens, UniProt O94806)	92
STK16 (Homo sapiens, UniProt O75716)	93

Sample 3
Structure (SMILES): COc1ccc2[nH]c3c4[nH]c5ccc(OC)cc5c4c4c(c3c2c1)C(=O)NC4=O
Tested at: 1 µM
target	technique	measured	reference	remaining binding
TSSK1B (Homo sapiens, UniProt Q9BXA7)	competitive binding panel		vehicle	89%
PDGFRA (Homo sapiens, UniProt P16234)	competitive binding panel		vehicle	11%
ABL1 (Homo sapiens, UniProt P00519, Q252H)	competitive binding scan			36%
CDK13 (Homo sapiens, UniProt Q14004)	competitive binding panel	CDC2L5	vehicle	100%
ERBB4 (Homo sapiens, UniProt Q15303)	competitive binding panel		vehicle	59%
RIPK2 (Homo sapiens, UniProt O43353)	competitive binding panel		vehicle	60%
COQ8B (Homo sapiens, UniProt Q96D53)	competitive binding panel	ADCK4	vehicle	75%
PIK3CA (Homo sapiens, UniProt P42336, H1047Y)	competitive binding panel		vehicle	89%

Sample 4
Target: Calcium/calmodulin-dependent protein kinase type II subunit alpha (CAMK2A, Homo sapiens, UniProt Q9UQM7)
UniProt Q9UQM7, sequence (whole entry, looked up): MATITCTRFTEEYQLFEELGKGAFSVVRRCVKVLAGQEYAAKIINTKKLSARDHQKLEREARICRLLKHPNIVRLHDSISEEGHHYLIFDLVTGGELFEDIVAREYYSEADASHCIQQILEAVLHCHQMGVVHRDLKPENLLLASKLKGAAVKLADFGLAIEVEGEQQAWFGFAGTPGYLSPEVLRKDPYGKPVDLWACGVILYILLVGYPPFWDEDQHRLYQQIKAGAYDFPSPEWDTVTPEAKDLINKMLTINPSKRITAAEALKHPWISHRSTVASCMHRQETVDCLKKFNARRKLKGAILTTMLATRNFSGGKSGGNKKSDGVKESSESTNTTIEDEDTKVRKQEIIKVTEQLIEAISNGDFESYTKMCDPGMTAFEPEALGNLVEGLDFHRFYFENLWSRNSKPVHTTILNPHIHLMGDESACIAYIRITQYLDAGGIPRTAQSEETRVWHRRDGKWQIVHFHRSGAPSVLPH
Observed: enzyme activity
Mode: inhibitor
Tested at: 10 µM
Structure (SMILES)	inhibition [%]
Cc1ccc(NC(=O)C2(c3ccc4c(c3)OC(F)(F)O4)CC2)nc1-c1cccc(C(=O)O)c1	6
O=C(O)[C@@H](O)Cc1ccccc1	21
N[C@H](CO)C(=O)O	-7
CC(C)CCC1(O)O[C@H]2[C@H](O)[C@H]3[C@@H]4CC[C@@H]5C[C@@H](O[C@@H]6O[C@H](CO)[C@H](O)[C@H](O)[C@H]6O[C@@H]6O[C@H](CO)[C@@H](O)[C@H](O)[C@H]6O)CC[C@]5(C)[C@H]4CC[C@]3(C)[C@H]2[C@@H]1C (stereo partly drawn)	-33
C=C1CCOC1=O	3
CCCCOC(=O)c1ccc(N)cc1	1
CO[C@H]1/C=C/O[C@@]2(C)Oc3c(C)c(O)c4c(c3C2=O)C(=O)C=C(NC(=O)/C(C)=C\C=C\[C@H](C)[C@H](O)[C@@H](C)[C@@H](O)[C@@H](C)[C@H](OC(C)=O)[C@@H]1C)C4=O	18
COc1c(-c2ccc(O)c(O)c2)oc2cc(O)cc(O)c2c1=O	-39
CO/N=C(\C(=O)N[C@@H]1C(=O)N2C(C(=O)[O-])=C(C[n+]3ccn4ncccc43)CS[C@H]12)c1nsc(N)n1	-7
Cc1cnc(C(=O)NCCc2ccc(S(=O)(=O)NC(=O)NC3CCCCC3)cc2)cn1	4

For quick reference, copied from above (sample 2):
target	remaining binding [%]
MAP3K3 (Homo sapiens, UniProt Q99759)	95
PRKD3 (Homo sapiens, UniProt O94806)	92
MELK (Homo sapiens, UniProt Q14680)	77
STK16 (Homo sapiens, UniProt O75716)	93
